# Published values from different studies.
Compound,organism,assay,test system,conditions,endpoint,result
CC(C)C[C@@H](NC(=O)[C@H](C)NC(=O)CNC(=O)[C@@H](NC=O)C(C)C)C(=O)N[C@@H](C)C(=O)N[C@@H](C(=O)N[C@H](C(=O)N[C@@H](C(=O)N[C@@H](Cc1c[nH]c2ccccc12)C(=O)N[C@H](CC(C)C)C(=O)N[C@@H](Cc1cccc2[nH]ccc12)C(=O)N[C@H](CC(C)C)C(=O)N[C@@H](Cc1c[nH]c2ccccc12)C(=O)N[C@H](CC(C)C)C(=O)N[C@@H](Cc1c[nH]c2ccccc12)C(=O)NCCO)C(C)C)C(C)C)C(C)C,Streptococcus pyogenes,broth microdilution,SSI-9,,MIC,0.017 µM
N=C(N)c1ccc(OCc2cccc(COc3ccc(C(=N)N)cc3)c2)cc1,Escherichia coli,,BW25113 mcr-1,"in combination, checkerboard, added: rifampicin",MIC,25 µg/mL
CC[C@H](C)[C@H](NC(=O)[C@H](CCCCN)NC(=O)[C@H](CCCCN)NC(=O)[C@H](Cc1ccccc1)NC(=O)[C@@H](NC(=O)[C@@H](NC(=O)[C@H](CCCNC(=N)N)NC(=O)[C@H](Cc1ccccc1)NC(=O)[C@@H](NC(=O)[C@H](CCCCN)NC(=O)[C@H](CCCCN)NC(=O)[C@@H](N)CCSC)[C@@H](C)CC)C(C)C)[C@@H](C)CC)C(=O)N[C@@H](CC(C)C)C(=O)N[C@@H](CCCCN)C(=O)N[C@@H](CCCNC(=N)N)C(=O)N[C@@H](CC(C)C)C(=O)N[C@H](C(=O)N[C@H](C(=O)O)C(C)C)[C@@H](C)CC,Staphylococcus aureus,broth microdilution,GU-1 MRSA,added: 150 mM NaCl,MIC,4 µg/mL
CC[C@H](C)[C@H](NC(=O)[C@H](CCCNC(=N)N)NC(=O)[C@H](Cc1c[nH]c2ccccc12)NC(=O)[C@H](CCCNC(=N)N)NC(=O)[C@H](Cc1c[nH]c2ccccc12)NC(=O)[C@H](Cc1c[nH]c2ccccc12)NC(=O)[C@H](Cc1c[nH]c2ccccc12)NC(=O)[C@H](CCCNC(=N)N)NC(=O)[C@H](Cc1c[nH]c2ccccc12)NC(=O)[C@@H](N)CCCNC(=N)N)C(N)=O,Candida albicans,broth microdilution,"CGMCC 2.209, RPMI 1640-MOPS","48 h, 30 °C, added: NH4Cl 6 µM",MIC,16 µM
CC(C)C[C@H](NC(=O)[C@H](Cc1c[nH]c2ccccc12)NC(=O)[C@H](CC(C)C)NC(=O)[C@@H](NC(=O)[C@H](CC(C)C)NC(=O)[C@H](CCCNC(=N)N)NC(=O)[C@@H](N)CCCNC(=N)N)[C@@H](C)O)C(=O)N[C@H](C(=O)N[C@@H](CC(C)C)C(=O)N[C@@H](CCCNC(=N)N)C(=O)N[C@@H](CCCNC(=N)N)C(N)=O)[C@@H](C)O,Lacticaseibacillus rhamnosus,,"1.038, probiotic strain","24 h, 37 °C, tested up to 128 µM",MIC,128 µM
N=C(N)NCCC[C@H](NC(=O)[C@H](Cc1c[nH]c2ccccc12)NC(=O)[C@H](CCCNC(=N)N)NC(=O)[C@H](Cc1c[nH]c2ccccc12)NC(=O)[C@H](Cc1c[nH]c2ccccc12)NC(=O)[C@H](Cc1c[nH]c2ccccc12)NC(=O)[C@H](CCCNC(=N)N)NC(=O)[C@H](Cc1c[nH]c2ccccc12)NC(=O)[C@@H](N)CCCNC(=N)N)C(=O)N[C@@H](Cc1ccccc1)C(N)=O,Candida albicans,broth microdilution,"17546, RPMI 1640-MOPS","48 h, 30 °C",MIC,8 µM
COc1cc(/C=C/C(=O)N2CCC=CC2=O)cc(OC)c1OC,human coronavirus OC43,virus-induced cell killing,MRC-5,screen,maximum inhibition,5.47%
CC[C@H](C)[C@H](NC(=O)[C@H](CCCNC(=N)N)NC(=O)[C@H](Cc1c[nH]c2ccccc12)NC(=O)[C@H](CCCNC(=N)N)NC(=O)[C@H](Cc1c[nH]c2ccccc12)NC(=O)[C@H](Cc1c[nH]c2ccccc12)NC(=O)[C@H](Cc1c[nH]c2ccccc12)NC(=O)[C@H](CCCNC(=N)N)NC(=O)[C@H](Cc1c[nH]c2ccccc12)NC(=O)[C@H](CCCNC(=N)N)NC(=O)CN)C(N)=O,Candida albicans,broth microdilution,"56452, RPMI 1640-MOPS","48 h, 30 °C",MIC,8 µM
O=c1ccc2nc3ccc(O)cc3oc-2c1,Stenotrophomonas maltophilia,,,24 h,MIC,> 32 µg/mL
O=S(=O)([O-])CCSSCCS(=O)(=O)[O-].[Na+].[Na+],human coronavirus OC43,virus-induced cell killing,MRC-5,screen,maximum inhibition,15.7%
CC(C)[C@H](NC(=O)[C@H](CCCNC(=N)N)NC(=O)[C@H](Cc1c[nH]c2ccccc12)NC(=O)[C@H](CCCNC(=N)N)NC(=O)[C@H](Cc1c[nH]c2ccccc12)NC(=O)[C@H](Cc1c[nH]c2ccccc12)NC(=O)[C@H](Cc1c[nH]c2ccccc12)NC(=O)[C@H](CCCNC(=N)N)NC(=O)[C@H](Cc1c[nH]c2ccccc12)NC(=O)[C@@H](N)CCCNC(=N)N)C(N)=O,Candida albicans,broth microdilution,"CGMCC 2.209, RPMI 1640-MOPS","48 h, 30 °C, added: KCl 4.5 mM",MIC,16 µM
CC[C@H](C)[C@H](NC(=O)[C@H](Cc1c[nH]c2ccccc12)NC(=O)[C@@H](NC(=O)[C@@H](NC(=O)[C@@H](NC(=O)[C@H](CCCNC(=N)N)NC(=O)[C@@H](N)CCCNC(=N)N)[C@@H](C)CC)[C@@H](C)O)[C@@H](C)CC)C(=O)N[C@H](C(=O)N[C@H](C(=O)N[C@@H](CCCNC(=N)N)C(=O)N[C@@H](CCCNC(=N)N)C(N)=O)[C@@H](C)CC)[C@@H](C)O,Lacticaseibacillus rhamnosus,,"1.038, probiotic strain","24 h, 37 °C, tested up to 128 µM",MIC,2 µM
CC1(C)SC2C(NC(=O)C(NC(=O)C3=C(O)C4CCCN4C3=O)c3ccccc3)C(=O)N2C1C(=O)O (stereo not drawn),Escherichia coli,broth microdilution,Keio mutant JW0587-1,"18 h, enterobactin-related gene",MIC,25 µg/mL
C[C@H](NC(=O)[C@H](CCCNC(=N)N)NC(=O)[C@H](Cc1c[nH]c2ccccc12)NC(=O)[C@H](CCCNC(=N)N)NC(=O)[C@H](Cc1c[nH]c2ccccc12)NC(=O)[C@H](Cc1c[nH]c2ccccc12)NC(=O)[C@H](Cc1c[nH]c2ccccc12)NC(=O)[C@H](CCCNC(=N)N)NC(=O)[C@H](Cc1c[nH]c2ccccc12)NC(=O)[C@H](CCCNC(=N)N)NC(=O)CN)C(N)=O,Candida albicans,broth microdilution,"CGMCC 2.209, RPMI 1640-MOPS","48 h, 30 °C, added: KCl 4.5 mM",MIC,4 µM
CC(C)(C)Oc1ccc(CC2NC(=O)C(C(=O)NC(C(=O)NC3C(=O)N4C3SC(C)(C)C4C(=O)O)c3ccccc3)=C2O)cc1 (stereo not drawn),Escherichia coli,broth microdilution,Keio mutant JW5195-1,18 h,MIC,50 µg/mL
OC(Cn1cncn1)(Cn1cncn1)c1ccc(F)cc1F,Nakaseomyces glabratus,,"CG2, azole-resistant, RPMI 1640","24 h, 35 °C",MIC,200 µM
CC1NC(=O)C(C(=O)NC(C(=O)NC2C(=O)N3C2SC(C)(C)C3C(=O)O)c2ccccc2)=C1O (stereo not drawn),Escherichia coli,broth microdilution,Keio mutant JW2142-1,,MIC,100 µg/mL
N=C(N)NCCC[C@H](NC(=O)CCCCCNC(=O)[C@H](CCCNC(=N)N)NC(=O)[C@H](CCCNC(=N)N)NC(=O)CCCCCNC(=O)[C@H](CCCNC(=N)N)NC(=O)[C@H](CCCNC(=N)N)NC(=O)CCCCCNC(=O)[C@H](CCCNC(=N)N)NC(=O)[C@H](CCCNC(=N)N)NC(=O)CCCCCNC(=O)[C@@H](N)CCCNC(=N)N)C(=O)NCCCCCC(=O)NCCC(=O)O,Escherichia coli,broth microdilution,"ATCC 25922, Mueller-Hinton broth","16 to 18 h, 37 °C",MIC,96 µM
CC1(C)SC2C(NC(=O)C(NC(=O)C3=C(O)C(c4ccccc4)NC3=O)c3ccccc3)C(=O)N2C1C(=O)O (stereo not drawn),Escherichia coli,broth microdilution,"ATCC 35218, low-level TEM-1",added: clavulanic acid 6 µg/mL,MIC,100 µg/mL
CC[C@H](C)[C@H](NC(=O)[C@H](CC(C)C)NC(=O)[C@H](CCCCN)NC(=O)[C@@H](NC(=O)[C@H](C)NC(=O)[C@H](CCC(=O)O)NC(=O)[C@H](Cc1c[nH]cn1)NC(=O)[C@@H](NC(=O)[C@H](CCCCN)NC(=O)[C@H](CCC(N)=O)NC(=O)[C@H](Cc1ccccc1)NC(=O)[C@@H](N)C(C)C)[C@@H](C)CC)[C@@H](C)CC)C(N)=O,Gram-positive and Gram-negative bacteria,,,geometric mean,MIC,256 µM
CC1(C)SC2C(NC(=O)C(NC(=O)C3=C(O)C(Cc4ccc(F)cc4)NC3=O)c3ccccc3)C(=O)N2C1C(=O)O (stereo not drawn),Escherichia coli,broth microdilution,"isolate IU, CTX-M-14, TEM-1",added: clavulanic acid 6 µg/mL,MIC,100 µg/mL
N=C(N)NCCC[C@H](NC(=O)CN)C(=O)N[C@@H](Cc1c[nH]c2ccccc12)C(=O)N[C@@H](CCCNC(=N)N)C(=O)N[C@@H](Cc1c[nH]c2ccccc12)C(=O)N[C@@H](Cc1c[nH]c2ccccc12)C(=O)N[C@@H](Cc1c[nH]c2ccccc12)C(=O)N[C@@H](CCCNC(=N)N)C(=O)N[C@@H](Cc1c[nH]c2ccccc12)C(=O)N[C@@H](CCCNC(=N)N)C(=O)N[C@@H](Cc1ccccc1)C(N)=O,Candida albicans,broth microdilution,"56214, RPMI 1640-MOPS","48 h, 30 °C",MIC,8 µM
CC1(C)SC2C(NC(=O)C(NC(=O)C3=C(O)CN(c4ccccc4)C3=O)c3ccccc3)C(=O)N2C1C(=O)O (stereo not drawn),Escherichia coli,broth microdilution,"ATCC 35218, low-level TEM-1",no clavulanic acid,MIC,> 200 µg/mL
N=C(N)NCCC[C@H](NC(=O)[C@H](Cc1c[nH]c2ccccc12)NC(=O)[C@H](CCCNC(=N)N)NC(=O)[C@H](Cc1c[nH]c2ccccc12)NC(=O)[C@H](Cc1c[nH]c2ccccc12)NC(=O)[C@H](Cc1c[nH]c2ccccc12)NC(=O)[C@H](CCCNC(=N)N)NC(=O)[C@H](Cc1c[nH]c2ccccc12)NC(=O)[C@H](CCCNC(=N)N)NC(=O)CN)C(N)=O,Candida albicans,broth microdilution,"17546, RPMI 1640-MOPS","48 h, 30 °C",MIC,8 µM

# Some of these lines once more:
Compound,organism,assay,test system,conditions,endpoint,result
OC(Cn1cncn1)(Cn1cncn1)c1ccc(F)cc1F,Nakaseomyces glabratus,,"CG2, azole-resistant, RPMI 1640","24 h, 35 °C",MIC,200 µM
